Experimental data from different studies.
Every numbered part comes from another study and shows a few of its results, in no order. Changes are numbered by the printed parent chain.

Block 1
Target: CCNF, cyclin fold, Cln2 fusion (human)
Technique: yeast growth competition, sequencing
Sample: yeast
Notes: strong parent motif
Baseline: not given
Reading: higher = stronger binding
Starting sequence: E2F1 docking peptide (human); PPVKRRLDFETDH
Variant | normalised enrichment score
PPVKRRQDFETDH [L7Q] | 0.23
PPFKRRLDFETDH [V3F] | 6.29
PPNKRRLDFETDH [V3N] | 2.91
PPVKRGLDFETDH [R6G] | 5.36
PPWKRRLDFETDH [V3W] | 8.2
PPVKRRLNFETDH [D8N] | 7.76
PPVTRRLDFETDH [K4T] | 6.84

Block 2
Target: RNA binding protein fox-1 homolog 2, RRM domain, GST-SBP tag (RBFOX2, Homo sapiens, UniProt O43251-10, residues 100-194)
Technique: RNA Bind-n-Seq
Form: RNA
Sample: in vitro
Concentration: 365 nM
Notes: natural RNA segment, single round, ends assumed
Baseline: no-protein control
Reading: higher = stronger binding
Shared flanks, not repeated: GGGAGUUCUACAGUCCGACGAUC … UGGAAUUCUCGGGUGCCAA
Construct (chain): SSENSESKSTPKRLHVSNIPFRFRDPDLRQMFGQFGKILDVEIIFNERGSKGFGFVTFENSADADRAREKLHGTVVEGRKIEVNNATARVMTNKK
Strand | RBNS enrichment (R)
UAAUUGUGAGAUUUUUCCCAAAUUGAGAUACAGAAGAAAAUAUAGUUUGAAUCUGAAAUUUAACACUUAUUUAUGUAAAACACUUUAUUUAAGAUAUUUUCUAAUGAUUU | 0.599
GGGGAAGCUGGGCAUCAGUGGCCACAUGGGCAUCAGGGGCUGGCCCCACAGAGACCCCACAGGGCAGUGAGCUCUGUCUUCCCCCACCUGCCUAGCCCAUCAUCUAUCUA | 0.218
CUGUUCUACAUAGUGAGUUCCAGGCCAGCCAAGACUACAUAGAGCAAUAAAGCCUGGUCUUUCUGUCUUUUCACAGAAAAUAAUAGUUCCUUUUAGGAUCUAGACAUACG | 0.288
CUGCUUAGUAGCCUUGAAGCAGCACAUCUCCACUGUCCCUGGCAGGAUUGUGGGAGGCUUCACAACCCCUGCUUUCCUGACUUCCUCUUCUGCCCAACACUGGGUGCCCC | 0.564
UCUACAUACCUGCUGCGCAGAGACCAGCCCCGUGGACAGAGCUGGCAUGAUGGUUGCUACAGUGCUCUUUCUCCCAUGAAGUCUUUGCUUUUAUAUCAGUGCCUUAUCUG | 3.91
GUGGACUUCAAAUCCCAGCUUUACCGUCAUCACUGUUCAGUUUUCUUCGAAGGUACGGAUGAGGAGAAAUCUUCUAUGAGCAACUCCGUGCUGUCUGCCUAGGAAUCCUU | 0.784
AUUCUGUAUAUAUUGCCCUGAACUUUCUGUGAUCACAGAUUAAAAAUAUCUUUUGGUUCCAAAUAGAAAGACAAUUCUUUAUUGUCUGACUGUAAUACAGCCUUCAUUGU | 0.452
AAGGAGAAAGAGCAAGAUGAGGAGGAGAUGGUGGAUGAAAAGGCAAACUUGAAGAAAAAAGCCAAGGGCAAGUUAACUAAGAAGAAAACCCCAGUGAAGUCGGAGUCUUC | 1.21

Block 3
Target: Fragile X messenger ribonucleoprotein 1, C-terminal low-complexity region (Fmr1, Mus musculus, UniProt P35922)
Technique: RNA Bind-n-Seq
Form: RNA
Sample: in vitro
Concentration: 200 nM
Notes: whole 134-nt RNA, ends assumed
Together with: 150 mM KCl
Baseline: input library
Reading: higher = stronger binding
Shared flanks, not repeated: GGGAGUUCUACAGUCCGACGAUC … UGGAAUUCUCGGGUGUCAAGG
Strand | log2 enrichment
GCAGGAAGUAAAAACAAAUGGAAAUGCUUCGGAUAGUGGCAGGGGUGGGGGUUGCUAAGGAAAGGGUGGGAUGGGAGUGGGUAAAAAGUU | -0.118
ACCAUGCAGGUGGGCAUCUUUGGGAAGUUGGGCAAGGGGGGGAUAGGGAGGGGGGUAACACUUUGGGAACAGGUGGUCCCAGGUCGUUUC | 1.01
CCUGUGCUACACAUCGUAUGUACCGAAUCGGGGAAAAAAGGGAAAAAAGGAAAAAAGGGGAAAGUAUUAUGUUACGCCGUUCGGAUCUGC | -0.509
GUCCUGUGCUACACAUCGUAUGUACCGAAUCGGAAAAAAGGAAAAAAGGGAAAAAAGGGAAAGUAUUAUGUUACGCCGUUCGGAUCUGCA | -0.789
AGUCCUGUGCUACACAUCGUAUGUACCGAAUCGGAAAAGGGAAAAGGGGAAAAGGGGAAAGUAUUAUGUUACGCCGUUCGGAUCUGCACU | 0.0964
AAGUCCUGUGCUACACAUCGUAUGUACCGAAUCGGGAAAAGGGAAAAGGAAAAGGGGAAAGUAUUAUGUUACGCCGUUCGGAUCUGCACU | 0.0596
CCUGUGCUACACAUCGUAUGUACCGAAUCGGGUUUUUUGGGGUUUUUUGGGGUUUUUUGGGAAAGUAUUAUGUUACGCCGUUCGGAUCUG | -0.374
AAGUCCUGUGCUACACAUCGUAUGUACCGAAUCGGGGUUUGGGGUUUGGGGUGGGGAAAGUAUUAUGUUACGCCGUUCGGAUCUGCACUU | 1.24
GCAGGAAGUAAAAACAAAUGGAAAUGCUUCGGAUAGUGGCAGGGGUGGGGGUUGCUAAGGAAAGGGUGGGGUGGGAGUGGGUAAAGAGUU | -0.247
AGUCCUGUGCUACACAUCGUAUGUACCGAAUCGGGGAGGGGAAAAAGGGGAAAGGGGAAAGUAUUAUGUUACGCCGUUCGGAUCUGCACU | 0.531
UAACUUUAGAGGAGGAUCUGAUGGAUAUGGCAGUGGACGUGGAUUUGGGGCUGGCUAUAAUGGGUAUGGAGGAGGACCUGGAGGUGGCAA | 0.124

Further values, each from its own experiment
Molecule | target | test | test system | conditions | scale | measurement | value
PhoQ, residues 284 288 289 292 302 303 TAVSDG | PhoP, residues 12 14 15 18 19 NQFFI (Escherichia coli, UniProt P23836) | Sort-seq, item: YFP reporter | E. coli | PhoQ-PhoP variant library, together with: 10 µM Mg2+ | baseline: high Mg2+ state, higher = stronger signaling | fold induction | 9.11

Some of these lines once more (block 2):
Strand | RBNS enrichment (R)
GUGGACUUCAAAUCCCAGCUUUACCGUCAUCACUGUUCAGUUUUCUUCGAAGGUACGGAUGAGGAGAAAUCUUCUAUGAGCAACUCCGUGCUGUCUGCCUAGGAAUCCUU | 0.784
CUGUUCUACAUAGUGAGUUCCAGGCCAGCCAAGACUACAUAGAGCAAUAAAGCCUGGUCUUUCUGUCUUUUCACAGAAAAUAAUAGUUCCUUUUAGGAUCUAGACAUACG | 0.288
AAGGAGAAAGAGCAAGAUGAGGAGGAGAUGGUGGAUGAAAAGGCAAACUUGAAGAAAAAAGCCAAGGGCAAGUUAACUAAGAAGAAAACCCCAGUGAAGUCGGAGUCUUC | 1.21
AUUCUGUAUAUAUUGCCCUGAACUUUCUGUGAUCACAGAUUAAAAAUAUCUUUUGGUUCCAAAUAGAAAGACAAUUCUUUAUUGUCUGACUGUAAUACAGCCUUCAUUGU | 0.452
CUGCUUAGUAGCCUUGAAGCAGCACAUCUCCACUGUCCCUGGCAGGAUUGUGGGAGGCUUCACAACCCCUGCUUUCCUGACUUCCUCUUCUGCCCAACACUGGGUGCCCC | 0.564
